Measured values gathered from unrelated publications.
A part holds a random share of what one study measured.
Sequence of UniProt Q16816 (whole entry, looked up): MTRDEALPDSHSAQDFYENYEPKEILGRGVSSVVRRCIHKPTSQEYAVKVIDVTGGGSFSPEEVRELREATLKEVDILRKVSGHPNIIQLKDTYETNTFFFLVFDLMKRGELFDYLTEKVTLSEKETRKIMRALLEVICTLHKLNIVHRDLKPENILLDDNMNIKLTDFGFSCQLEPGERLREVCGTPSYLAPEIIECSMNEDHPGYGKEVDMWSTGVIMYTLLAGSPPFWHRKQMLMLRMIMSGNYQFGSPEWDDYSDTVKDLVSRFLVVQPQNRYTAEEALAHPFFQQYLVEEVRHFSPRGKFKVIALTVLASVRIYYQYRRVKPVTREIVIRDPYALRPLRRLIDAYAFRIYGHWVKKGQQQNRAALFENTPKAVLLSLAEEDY
Sequence of UniProt Q15418 (whole entry, looked up): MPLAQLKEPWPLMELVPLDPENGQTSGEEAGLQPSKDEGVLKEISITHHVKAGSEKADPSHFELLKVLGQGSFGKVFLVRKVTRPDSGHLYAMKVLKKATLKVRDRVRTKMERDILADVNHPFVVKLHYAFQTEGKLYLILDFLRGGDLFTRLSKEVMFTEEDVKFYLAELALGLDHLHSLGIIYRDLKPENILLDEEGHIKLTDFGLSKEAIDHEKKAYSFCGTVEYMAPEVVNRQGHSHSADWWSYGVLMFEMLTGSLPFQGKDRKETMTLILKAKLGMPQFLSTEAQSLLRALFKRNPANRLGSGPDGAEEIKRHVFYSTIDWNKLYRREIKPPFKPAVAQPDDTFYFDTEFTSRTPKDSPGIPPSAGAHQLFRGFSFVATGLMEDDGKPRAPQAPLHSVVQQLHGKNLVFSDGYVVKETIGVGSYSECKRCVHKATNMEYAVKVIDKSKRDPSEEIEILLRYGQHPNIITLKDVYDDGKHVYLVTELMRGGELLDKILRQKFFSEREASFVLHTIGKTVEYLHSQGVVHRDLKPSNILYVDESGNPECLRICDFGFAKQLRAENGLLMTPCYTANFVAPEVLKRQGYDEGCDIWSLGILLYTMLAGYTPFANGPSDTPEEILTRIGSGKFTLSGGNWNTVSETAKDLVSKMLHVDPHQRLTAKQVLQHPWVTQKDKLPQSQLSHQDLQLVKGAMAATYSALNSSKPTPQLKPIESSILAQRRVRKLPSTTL
Sequence of UniProt P46734 (whole entry, looked up): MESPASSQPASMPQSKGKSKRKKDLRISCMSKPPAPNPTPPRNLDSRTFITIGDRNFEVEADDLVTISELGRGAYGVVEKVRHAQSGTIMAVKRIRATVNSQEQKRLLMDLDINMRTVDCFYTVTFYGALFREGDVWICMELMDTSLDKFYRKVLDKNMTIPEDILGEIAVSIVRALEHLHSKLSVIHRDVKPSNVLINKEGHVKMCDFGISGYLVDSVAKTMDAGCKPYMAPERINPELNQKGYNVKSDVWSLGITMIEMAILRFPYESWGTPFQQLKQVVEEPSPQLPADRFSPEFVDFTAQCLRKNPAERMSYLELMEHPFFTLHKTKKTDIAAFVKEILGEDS

Study 1
Cell line: A-375
Concentration: 100 µM
Time: 18 h
Compound	viability
CCc1c(C)[nH]c2c1C(=O)C(CN1CCOCC1)CC2 (centres unmarked)	91%
NS(=O)(=O)c1cc2c(cc1Cl)NC(C(Cl)Cl)NS2(=O)=O (centres unmarked)	95.2%
CC(C)NCC(O)COc1cccc2[nH]c3ccccc3c12 (centres unmarked)	43.8%
C#C[C@]1(O)CC[C@H]2[C@@H]3CCC4=CC(=O)CC[C@@H]4[C@H]3CC[C@@]21CC	92.2%
CC(C)[C@H](N)C(=O)OCCOCn1cnc2c(=O)[nH]c(N)nc21	94.9%
Cc1ccnc(NS(=O)(=O)c2ccc(N)cc2)n1	101%
CN(C)CCC(c1ccccc1)c1ccccn1 (centres unmarked)	101%
OCCN1C[C@H](O)[C@@H](O)[C@H](O)[C@H]1CO	91%

Study 2
Target: Ephrin type-B receptor 2 (EPHB2, Homo sapiens, UniProt P29323)
Sequence of UniProt P29323 (whole entry, looked up): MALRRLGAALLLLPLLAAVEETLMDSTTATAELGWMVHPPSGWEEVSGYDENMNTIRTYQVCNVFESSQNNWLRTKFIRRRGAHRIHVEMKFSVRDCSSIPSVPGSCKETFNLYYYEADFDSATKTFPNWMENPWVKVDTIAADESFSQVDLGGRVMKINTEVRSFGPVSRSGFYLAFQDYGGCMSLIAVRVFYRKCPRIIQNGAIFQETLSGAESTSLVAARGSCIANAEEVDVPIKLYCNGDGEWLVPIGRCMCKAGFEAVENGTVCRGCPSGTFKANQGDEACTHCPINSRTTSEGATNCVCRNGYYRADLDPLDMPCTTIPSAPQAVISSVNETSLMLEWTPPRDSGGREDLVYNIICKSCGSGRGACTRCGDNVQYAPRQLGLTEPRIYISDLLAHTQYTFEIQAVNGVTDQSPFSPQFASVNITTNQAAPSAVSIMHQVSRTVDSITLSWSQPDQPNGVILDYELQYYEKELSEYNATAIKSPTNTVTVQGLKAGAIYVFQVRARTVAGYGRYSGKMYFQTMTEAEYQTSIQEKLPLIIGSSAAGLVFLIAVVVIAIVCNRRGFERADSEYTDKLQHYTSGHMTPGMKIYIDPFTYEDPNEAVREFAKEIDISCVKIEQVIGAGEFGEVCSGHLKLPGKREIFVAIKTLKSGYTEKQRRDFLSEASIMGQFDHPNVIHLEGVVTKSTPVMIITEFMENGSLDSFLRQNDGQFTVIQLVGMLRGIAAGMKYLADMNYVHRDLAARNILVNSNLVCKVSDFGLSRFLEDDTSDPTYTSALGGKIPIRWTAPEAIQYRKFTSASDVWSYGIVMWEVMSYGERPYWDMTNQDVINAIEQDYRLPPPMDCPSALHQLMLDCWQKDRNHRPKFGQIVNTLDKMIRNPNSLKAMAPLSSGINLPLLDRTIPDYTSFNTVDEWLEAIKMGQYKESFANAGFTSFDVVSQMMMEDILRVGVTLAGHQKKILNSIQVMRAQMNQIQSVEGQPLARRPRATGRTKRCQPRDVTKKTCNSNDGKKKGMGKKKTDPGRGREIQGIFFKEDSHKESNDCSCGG
Observed: enzyme activity
Action: inhibitor
Concentration: 0.5 µM
Relative to: control
SMILES	remaining activity [%]
Cc1nc(-c2ccccc2)c(-c2ccncc2)o1	99.8
Nc1[nH]nc2nc3ccccc3nc12	103
OCC(O)CCON=C1C(c2c(O)[nH]c3ccccc23)=Nc2ccccc21 (centres unmarked)	75
Oc1ccc(-c2nc(-c3ccncc3)c(-c3ccc(F)cc3)[nH]2)cc1	105
Nc1ncnc2n[nH]c(Nc3ccc(F)cc3)c12	91.6
COc1cc2ncnc(Nc3ccc(Oc4ccccc4)cc3)c2cc1OC	99.7
O=C1NC(=O)C(c2cn(CCCO)c3ncccc23)=C1c1cnccn1	78.3
COc1ccc(OC)c2c(=S)c3ccccc3[nH]c12	94.9
CO[C@H]1C[C@@H]2CC[C@@H](C)[C@@](O)(O2)C(=O)C(=O)N2CCCC[C@H]2C(=O)O[C@H]([C@H](C)C[C@@H]2CC[C@@H](O)[C@H](OC)C2)CC(=O)[C@H](C)/C=C(\C)[C@@H](O)[C@@H](OC)C(=O)[C@H](C)C[C@H](C)/C=C/C=C/C=C/1C	114
Nc1ccc2ncnc(NCCc3ccc(Oc4ccccc4)cc3)c2c1	97.7
O=c1c2ccccc2[nH]c(=S)n1CCN1CCC(=C(c2ccc(F)cc2)c2ccc(F)cc2)CC1	92.1
COc1cc2nccc(Oc3ccc(NC(=S)NC(=O)c4ccccc4C)cc3)c2cc1OC	93.5
CCOC(=O)c1c(C)[nH]c(/C=C2\C(=O)Nc3ccccc32)c1C	95.4
O=C(Nc1cccc(Nc2cc(Nc3cccc(C(F)(F)F)c3)ncn2)c1)C1CC1	88.6

Study 3
Compound: CN([C@@H]1CCc2c(CC(=O)O)c3ccccc3n2C1)S(=O)(=O)c1ccc(F)cc1
Observed: cell-free assay
Technique: competition with immobilised ligand
Concentration: 1 µM
target	remaining binding [%]
Phosphorylase b kinase gamma catalytic chain, skeletal muscle/heart isoform (PHKG1, Homo sapiens, UniProt Q16816)	100
Rhodopsin kinase GRK7 (GRK7, Homo sapiens, UniProt Q8WTQ7)	93
Ribosomal protein S6 kinase alpha-1, N-terminal kinase domain (RPS6KA1, Homo sapiens, UniProt Q15418)	100
MAP/microtubule affinity-regulating kinase 3 (MARK3, Homo sapiens, UniProt P27448)	100
Proto-oncogene tyrosine-protein kinase receptor Ret (RET, Homo sapiens, UniProt P07949, V804L)	99
Mitogen-activated protein kinase kinase kinase kinase 4 (MAP4K4, Homo sapiens, UniProt O95819)	100
Dual specificity mitogen-activated protein kinase kinase 3 (MAP2K3, Homo sapiens, UniProt P46734)	84
Tyrosine-protein kinase BTK (BTK, Homo sapiens, UniProt Q06187)	86

Study 4
Target: DNA polymerase theta, ATPase domain (POLQ, Homo sapiens, UniProt O75417)
Sequence of UniProt O75417 (whole entry, unmodified, looked up): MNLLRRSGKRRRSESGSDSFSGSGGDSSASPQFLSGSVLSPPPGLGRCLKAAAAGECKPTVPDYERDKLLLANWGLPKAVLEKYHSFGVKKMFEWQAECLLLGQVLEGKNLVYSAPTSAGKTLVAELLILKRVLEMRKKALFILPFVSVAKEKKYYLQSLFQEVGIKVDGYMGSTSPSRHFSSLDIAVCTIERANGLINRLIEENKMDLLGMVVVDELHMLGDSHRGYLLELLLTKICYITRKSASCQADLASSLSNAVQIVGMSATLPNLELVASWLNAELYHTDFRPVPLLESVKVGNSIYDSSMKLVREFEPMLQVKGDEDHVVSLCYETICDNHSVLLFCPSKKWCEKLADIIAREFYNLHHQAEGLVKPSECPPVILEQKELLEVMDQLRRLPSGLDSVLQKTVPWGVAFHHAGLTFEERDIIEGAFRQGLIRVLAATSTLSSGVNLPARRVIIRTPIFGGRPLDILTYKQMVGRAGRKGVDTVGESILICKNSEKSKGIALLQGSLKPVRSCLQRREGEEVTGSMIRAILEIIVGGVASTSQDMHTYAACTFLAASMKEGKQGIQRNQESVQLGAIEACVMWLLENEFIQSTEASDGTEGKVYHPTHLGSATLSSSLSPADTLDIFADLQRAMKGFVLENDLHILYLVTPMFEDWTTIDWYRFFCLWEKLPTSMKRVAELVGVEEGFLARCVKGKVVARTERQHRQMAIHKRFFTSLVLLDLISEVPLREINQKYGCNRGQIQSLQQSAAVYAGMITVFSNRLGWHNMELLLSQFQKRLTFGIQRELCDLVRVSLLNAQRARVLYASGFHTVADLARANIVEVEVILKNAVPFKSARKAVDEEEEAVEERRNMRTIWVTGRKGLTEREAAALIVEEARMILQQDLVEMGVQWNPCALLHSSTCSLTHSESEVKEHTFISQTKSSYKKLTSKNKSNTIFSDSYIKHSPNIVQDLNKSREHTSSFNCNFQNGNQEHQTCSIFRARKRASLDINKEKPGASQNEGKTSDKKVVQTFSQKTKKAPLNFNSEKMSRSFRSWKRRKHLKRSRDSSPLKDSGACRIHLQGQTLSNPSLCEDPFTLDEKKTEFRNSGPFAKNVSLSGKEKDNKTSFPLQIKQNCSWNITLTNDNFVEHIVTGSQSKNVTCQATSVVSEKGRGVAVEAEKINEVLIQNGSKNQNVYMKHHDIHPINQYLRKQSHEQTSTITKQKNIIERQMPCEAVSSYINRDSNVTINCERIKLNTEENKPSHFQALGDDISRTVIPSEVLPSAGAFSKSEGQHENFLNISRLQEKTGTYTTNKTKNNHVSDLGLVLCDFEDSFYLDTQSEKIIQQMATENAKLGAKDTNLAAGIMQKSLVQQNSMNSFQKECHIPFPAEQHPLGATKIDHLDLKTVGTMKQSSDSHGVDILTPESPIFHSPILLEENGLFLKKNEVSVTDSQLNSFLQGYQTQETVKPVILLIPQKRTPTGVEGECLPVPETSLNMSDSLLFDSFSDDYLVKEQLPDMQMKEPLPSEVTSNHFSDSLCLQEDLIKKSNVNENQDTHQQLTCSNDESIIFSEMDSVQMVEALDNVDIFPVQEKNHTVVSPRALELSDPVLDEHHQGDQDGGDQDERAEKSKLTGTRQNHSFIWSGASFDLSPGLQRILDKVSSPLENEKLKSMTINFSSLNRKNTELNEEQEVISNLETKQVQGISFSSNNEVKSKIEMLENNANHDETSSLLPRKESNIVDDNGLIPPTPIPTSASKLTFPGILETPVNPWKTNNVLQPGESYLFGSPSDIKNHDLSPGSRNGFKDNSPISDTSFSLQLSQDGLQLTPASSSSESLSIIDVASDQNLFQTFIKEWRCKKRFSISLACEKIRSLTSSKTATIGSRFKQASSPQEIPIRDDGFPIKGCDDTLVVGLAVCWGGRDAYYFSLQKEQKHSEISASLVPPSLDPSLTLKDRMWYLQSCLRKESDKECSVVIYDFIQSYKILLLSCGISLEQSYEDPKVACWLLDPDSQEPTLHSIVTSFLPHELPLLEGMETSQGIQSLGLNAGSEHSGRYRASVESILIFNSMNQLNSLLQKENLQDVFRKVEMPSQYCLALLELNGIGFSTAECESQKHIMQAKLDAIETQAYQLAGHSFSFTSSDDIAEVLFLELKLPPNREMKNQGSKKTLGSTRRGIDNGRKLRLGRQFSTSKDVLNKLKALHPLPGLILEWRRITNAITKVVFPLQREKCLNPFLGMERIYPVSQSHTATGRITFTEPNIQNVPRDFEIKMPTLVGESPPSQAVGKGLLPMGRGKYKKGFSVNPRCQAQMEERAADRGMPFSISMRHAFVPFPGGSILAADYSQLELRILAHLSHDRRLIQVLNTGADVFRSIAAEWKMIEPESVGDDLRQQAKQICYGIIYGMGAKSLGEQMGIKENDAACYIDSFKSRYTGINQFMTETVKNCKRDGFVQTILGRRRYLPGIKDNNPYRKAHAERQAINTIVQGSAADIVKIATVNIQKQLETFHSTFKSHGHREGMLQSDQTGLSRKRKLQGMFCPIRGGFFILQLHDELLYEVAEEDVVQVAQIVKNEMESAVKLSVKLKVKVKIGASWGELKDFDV
Observed: enzyme activity
Action: inhibitor
Concentration: 77 µM
Relative to: untreated
SMILES	remaining activity [%]
Cc1[nH]c2ccccc2c1CCNCc1ccc(/C=C/C(=O)NO)cc1	102
NC(N)=NC(N)=Nc1ccccc1	99.6
C#CCn1c(=O)c2c(ncn2C)n(C)c1=O	104
CCOC(=O)c1c(C)[nH]c(/C=C2\C(=O)Nc3ccccc32)c1C	99.6
CCn1cc(C(=O)O)c(=O)c2cnc(N3CCNCC3)nc21	109
C=C1C[C@@]23CC[C@H]4[C@@](C)(CCC[C@@]4(C)C(=O)O)[C@@H]2CC[C@]1(O)C3	98.3
CC(=O)[C@H]1CC[C@H]2[C@@H]3C[C@H](C)C4=CC(=O)CC[C@]4(C)[C@H]3[C@@H](O)C[C@]12C	102
CO[C@H]1C[C@@H]2CC[C@@H](C)[C@@](O)(O2)C(=O)C(=O)N2CCCC[C@H]2C(=O)O[C@H]([C@H](C)C[C@@H]2CC[C@H](n3cnnn3)[C@H](OC)C2)CC(=O)[C@H](C)/C=C(\C)[C@@H](O)[C@@H](OC)C(=O)[C@H](C)C[C@H](C)/C=C/C=C/C=C/1C	98.8
